Earlier results, collected from citations in different studies.
Each line is one published result; not all experiments were run side by side. ± marks the error that the study gave. Values after ≈ are worked out from the molar mass of the structure shown.

| SMILES | assay | system | setting | measurement | result |
| --- | --- | --- | --- | --- | --- |
| CNC1C(O)C(NC)C2OC3(O)C(OC(C)C[C@H]3NC(=O)Cc3cc(Cl)ccn3)OC2C1O.Cl.Cl (stereo partly drawn) |  | mouse liver microsomes |  | half-life | 1.5 h |
| O=[N+]([O-])c1ccc(C2=[N+]([O-])c3ccccc3N3CCCN=C23)cc1 |  | octanol/PBS |  | logP | 0.657 |
| CCCCCCCC(=O)OC[C@H](NC(=O)[C@H](CO)NC(=O)CN)C(=O)N[C@@H](Cc1ccccc1)C(=O)N[C@@H](CC(C)C)C(=O)N[C@@H](CO)C(=O)N1CCC[C@H]1C(=O)N[C@@H](CCC(=O)O)C(=O)N[C@@H](Cc1cnc[nH]1)C(=O)N[C@@H](CCC(N)=O)C(=O)N[C@@H](CCCNC(=N)N)C(=O)N[C@H](C(=O)N[C@@H](CCC(N)=O)C(=O)N[C@@H](CCC(N)=O)C(=O)N[C@@H](CCCNC(=N)N)C(=O)N[C@@H](CCCCN)C(=O)N[C@@H](CCC(=O)O)C(=O)N[C@@H](CO)C(=O)N[C@@H](CCCCN)C(=O)N[C@@H](CCCCN)C(=O)N1CCC[C@H]1C(=O)N1CCC[C@H]1C(=O)N[C@@H](C)C(=O)N[C@@H](CCCCN)C(=O)N[C@@H](CC(C)C)C(=O)N[C@@H](CCC(N)=O)C(=O)N1CCC[C@H]1C(=O)N[C@@H](CCCNC(=N)N)C(=O)O)C(C)C | refers to: total ghrelin |  | injection, 1 µg/kg | half-life | 0.6 ± 0.04 h |
| [Mn+2].[NH3+]CCN1CCN(CC(=O)[O-])Cc2cccc(n2)CN(CC(=O)[O-])CC1 |  |  | pH 6.0, 37 °C, added: 25 mM Zn(II) | half-life | 54.4 h |
| CC[C@H](C)C(=O)N1CCC(NC(=O)Nc2ccc(OC(F)(F)F)c(F)c2)CC1 |  | rat | oral | oral bioavailability | 96% |
| CC(C)CCO |  | rat | intraperitoneal | LD50 | 813 mg/kg |
| CC1(O)CC23CC(O)C4(O)C(C5OC5C4(C)C)C(C)(O)C2CCC1C3O (stereo not drawn) |  | mouse | oral | LD50 | 7.61 mg/kg |
| C=C(C)[C@@H]1CCC(C(=O)O)=C[C@H]1c1c(O)cc(CCCCC)cc1O |  | healthy volunteers | dose not given, steady state, added: stiripentol | decrease in Cmax | 13% |
| COc1ccc(CCN2CCN(C/C=C/[125I])CC2)cc1OC |  | mouse, whole brain | 15 to 120 min | brain clearance | 75% |
| CC[C@@H]1CN2CCc3c([nH]c4cccc(OC)c34)[C@@H]2C[C@@H]1/C(=C\OC)C(=O)OC |  | rat | oral | oral bioavailability | 20 to 30% |
| C=C(C)[C@@H]1CCC(CO)=C[C@H]1c1c(O)cc(CCCCC)cc1O |  | healthy volunteers | dose not given, steady state, added: stiripentol | decrease in AUC(0-tau) | 28% |
| CON(C(=O)c1cn(C)nc1C(F)F)C(C)Cc1c(Cl)cc(Cl)cc1Cl (stereo not drawn) |  | zebrafish (Danio rerio) | 96 h | LC50 | 0.729 mg a.i./L |
| CN[C@H](CC(C)C)C(=O)N[C@H]1C(=O)N[C@@H](CC(N)=O)C(=O)N[C@H]2C(=O)N[C@H]3C(=O)N[C@H](C(=O)N[C@H](C(=O)NCCCNC(=N)N)c4cc(O)cc(O)c4-c4cc3ccc4O)[C@H](O)c3ccc(c(Cl)c3)Oc3cc2cc(c3O[C@@H]2O[C@H](CO)[C@@H](O)[C@H](O)[C@H]2O[C@H]2C[C@](C)(NCc3ccc(-c4ccc(Cl)cc4)cc3)[C@H](O)[C@H](C)O2)Oc2ccc(cc2Cl)[C@H]1O |  | mouse | intravenous, 50 mg/kg, maximum tolerated dose | clearance | 0.09 L/h/kg |
| CC(C)[C@@H]1CC[C@@H](C)C[C@H]1C(=O)NCCc1ccccn1 |  | rat | dietary, 90 days | NOAEL | 5 mg/kg/day |
| NC(=O)N[C@H]1CC[C@H](CCN2CCN(c3cccc(Cl)c3Cl)CC2)CC1 |  | human schizophrenia patients | after cariprazine discontinuation | half-life | 1 to 3 weeks |
| C=C(C)C12OC3(c4ccccc4)OC1C1C4OC4(CO)C(O)C4(O)C(=O)C(C)=CC4C1(O3)C(C)C2OC(=O)c1ccccc1 (stereo not drawn) |  | mouse 22Rv1 and PDX models | intraperitoneal, 0.5 mg/kg 5 times weekly, early dosing stage | body weight loss | ~13% |
| COC[C@@H](NC(C)=O)C(=O)NCc1ccc(OCc2ccccc2F)cc1 | behavioural toxicity | rat | oral | TD50 | > 500 mg/kg |
| OC1C=Cc2c(cc3ccc4cccc5c6ccccc6c2c3c45)C1O (stereo not drawn) |  | human liver microsomes | phase I | CLint | 0.54 mL/min/mg |
| CCN1CCCC1CNC(=O)c1cc(Br)cc(OC)c1O[11CH3] (stereo not drawn) | HPLC |  |  | log kw | 1.89 |
| CCCCCc1cc(O)c2c(c1)OC(C)(C)C1CCC(C(=O)OC3OC(C(=O)O)C(O)C(O)C3O)=CC21 (stereo not drawn) |  | human, plasma | inhalation | Tmax | ~2 h |
| O=C1NC(=O)/C(=C/c2ccc3ncnc(N4CCC(F)CC4)c3n2)S1 |  | mouse | 5 days | NOAEL | 30 mg/kg |
| C[C@]12CC[C@H](OC(=O)NC3CCNCC3)C[C@H]1CC[C@@H]1[C@@H]2CC[C@]2(C)[C@@H](c3ccc(=O)oc3)CC[C@]12O |  |  |  | solubility | 2500 µg/mL (≈ 4.88 mM) |
| CN1CCN(C(=O)N(CCCCCCC(=O)NO)c2ccc(-c3ccc4cnn(C)c4c3)cc2)CC1 |  | lymphoma and myeloma patients | dose not given, phase I | safety and tolerability | not toxic |
| CN1CC[C@]2(C)c3cc(OC(=O)Nc4ccccc4)ccc3NC12 (single isomer, unassigned; (+)) |  | human, plasma | 40 mg Posiphen | Cmax | 31 ng/mL |
| CN[C@H](CC(C)C)C(=O)N[C@H]1C(=O)N[C@@H](CC(N)=O)C(=O)N[C@H]2C(=O)N[C@H]3C(=O)N[C@H](C(=O)N[C@H](C(=O)O)c4cc(O)cc(O)c4-c4cc3ccc4O)[C@H](O)c3ccc(c(Cl)c3)Oc3cc2cc(c3O[C@@H]2O[C@H](CO)[C@@H](O)[C@H](O)[C@H]2O[C@H]2C[C@](C)(NCc3ccc(-c4ccc(Cl)cc4)cc3)[C@H](O)[C@H](C)O2)Oc2ccc(cc2Cl)[C@H]1O |  | mouse, plasma | intravenous, 75 mg/kg (MTD) | volume of distribution | 1.24 L/kg |
| COc1cccc(-c2cccc(OC)n2)n1.[Ru+2].c1cnc2c(c1)c1c(c3cccnc32)OCCO1.c1cnc2c(c1)c1c(c3cccnc32)OCCO1 |  | octanol/water | pH 7.4 | log D | -1.1 |
| COc1ccc(C2=[N+]([O-])c3ccccc3N3CCN=C23)cc1 |  | octanol/PBS |  | logP | 1.25 |

A few entries again:
| SMILES | assay | system | setting | measurement | result |
| --- | --- | --- | --- | --- | --- |
| [Mn+2].[NH3+]CCN1CCN(CC(=O)[O-])Cc2cccc(n2)CN(CC(=O)[O-])CC1 |  |  | pH 6.0, 37 °C, added: 25 mM Zn(II) | half-life | 54.4 h |
| CC[C@H](C)C(=O)N1CCC(NC(=O)Nc2ccc(OC(F)(F)F)c(F)c2)CC1 |  | rat | oral | oral bioavailability | 96% |
| CC(C)CCO |  | rat | intraperitoneal | LD50 | 813 mg/kg |
